Measurements pooled from the literature.
Compare with care: the assays were run in different laboratories. Values joined by “and” are separate records of one study, mostly repeats; a detail may differ.
BRAF: Serine/threonine-protein kinase B-raf (BRAF, Homo sapiens, UniProt P15056)
Sequence of UniProt P15056 (whole entry, unmodified, looked up): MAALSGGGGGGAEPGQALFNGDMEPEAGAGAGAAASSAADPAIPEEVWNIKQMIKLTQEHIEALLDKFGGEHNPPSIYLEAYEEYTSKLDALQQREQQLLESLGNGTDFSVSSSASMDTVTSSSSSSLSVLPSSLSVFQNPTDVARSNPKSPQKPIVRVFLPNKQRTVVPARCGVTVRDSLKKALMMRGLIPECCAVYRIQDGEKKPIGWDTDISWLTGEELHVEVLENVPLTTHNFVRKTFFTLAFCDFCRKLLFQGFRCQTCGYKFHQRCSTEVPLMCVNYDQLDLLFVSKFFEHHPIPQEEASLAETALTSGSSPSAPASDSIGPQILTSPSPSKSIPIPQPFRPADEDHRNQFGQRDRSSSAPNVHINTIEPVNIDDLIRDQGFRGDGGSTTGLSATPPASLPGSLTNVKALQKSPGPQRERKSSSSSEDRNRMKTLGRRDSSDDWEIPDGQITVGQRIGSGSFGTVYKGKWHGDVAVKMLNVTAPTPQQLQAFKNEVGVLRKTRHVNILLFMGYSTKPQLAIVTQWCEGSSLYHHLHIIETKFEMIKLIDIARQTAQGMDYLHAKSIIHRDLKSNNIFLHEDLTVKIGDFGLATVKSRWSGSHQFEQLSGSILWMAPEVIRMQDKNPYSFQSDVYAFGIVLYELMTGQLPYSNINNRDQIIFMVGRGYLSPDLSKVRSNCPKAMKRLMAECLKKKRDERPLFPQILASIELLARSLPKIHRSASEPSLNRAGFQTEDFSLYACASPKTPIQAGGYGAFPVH
BRAF V600E: Serine/threonine-protein kinase B-raf (BRAF, Homo sapiens, UniProt P15056, V600E)

SMILES = COCC12C(=O)NC3C4(C(OC)CC1O)C1CC5(O)C(OC)C(O)C(OC(C)=O)(C1C5OC(=O)c1ccccc1)C3(O)C(OC)C24 (centres unmarked); target = BRAF; assay = kinase activity, inhibitor, ProQinase kinase profiling; conditions = 25 µM; scale = relative to: control; measurement = remaining activity; value = 108% and 117%
SMILES = CN1CC[C@@H](COc2cnc(C#N)cc2-c2ccn3nc(NC(=O)C4CC4)cc3c2)C1; target = BRAF; assay = enzyme activity, inhibitor; conditions = 1 µM; measurement = inhibition; value = 4%
SMILES = C=C1CCCCCCCCCC(CO)C1=O (centres unmarked); target = BRAF; assay = cell-free assay; conditions = 10 µM; measurement = remaining signal; value = 72%
SMILES = COc1ccc(C(=O)/C=C/c2ccccc2-c2c[nH]c3ccc(C#N)cc23)c(O)c1; target = BRAF V600E; assay = enzyme activity, inhibitor; conditions = 20 µM; measurement = inhibition; value = 3%
SMILES = CCn1cc(C(=O)O)c(=O)c2c(N)c(F)c(NC3CCCCC3)cc21; target = BRAF V600E; assay = kinase activity; conditions = 0.1 µM, added: ATP at Km; measurement = inhibition; value = 9.1%
SMILES = NC(=O)[C@@H](O)C[C@H]1CCc2sc3ncnc(O[C@H]4CC[C@H](N5CCOCC5)CC4)c3c21; target = BRAF; assay = enzyme activity, inhibitor; conditions = 10 µM; measurement = inhibition; value = 10%
SMILES = COc1cc(Nc2nc(C)cc(-c3cnn4nc(OC)ccc34)n2)cc(C(F)(F)F)c1; target = BRAF; assay = inhibitor; conditions = 1 µM; scale = relative to: control; measurement = remaining activity; value = 100%
SMILES = CNC(=O)C[C@H](Cc1ccc(C#N)cc1)NC(=O)c1cc(-c2ccc(CN[C@H](C)c3ccc(C)cc3)o2)ccc1Cl; target = BRAF; assay = enzyme activity, inhibitor; conditions = 1 µM; measurement = activity vs control; value = 102%
SMILES = C=CC(=O)Nc1cccc(-c2cnc3[nH]cc(C(=O)NC(C)(C)C)c3n2)c1; target = BRAF; assay = enzyme activity, inhibitor; conditions = 0.1 µM; measurement = inhibition; value = -3%
SMILES = COc1ccc(O)cc1-c1c[nH]c2ncc(-c3cncc(C(=O)N(C)C)c3)cc12; target = BRAF; assay = binding, competition with immobilised ligand; conditions = 0.2 µM; measurement = inhibition; value = 2.08%
SMILES = Cc1[nH]nc2c1N=C(c1ccccc1Cl)c1cnc(N3CCOCC3)cc1N2; target = BRAF V600E; assay = enzyme activity, inhibitor; conditions = 0.5 µM; measurement = inhibition; value = 9.3%
SMILES = Cc1cccc(O[C@H]2CCC[C@@H](C(C)CNCc3ccncc3)C2)c1 (relative stereo); target = BRAF; assay = cell-free assay; conditions = 10 µM; measurement = inhibition; value = -1%
SMILES = CN1CCN(Cc2ccc(-c3ccc(CO[C@H]4CCC[C@@H]4NC(=O)c4cc(-c5cnn(C)c5)cnc4N)cc3)cc2)CC1; target = BRAF; assay = enzyme activity, inhibitor; conditions = 0.1 µM; measurement = inhibition; value = 4% and 10%
SMILES = CN1CCN(Cc2ccc(NC(=O)c3cccc(C#Cc4cnc(N)c5ncccc45)c3)cc2C(F)(F)F)CC1; target = BRAF V600E; assay = cell-free assay, competition with immobilised ligand; conditions = 50 nM; measurement = remaining binding; value = 1%

Repeated from above:
SMILES = COCC12C(=O)NC3C4(C(OC)CC1O)C1CC5(O)C(OC)C(O)C(OC(C)=O)(C1C5OC(=O)c1ccccc1)C3(O)C(OC)C24 (centres unmarked); target = BRAF; assay = kinase activity, inhibitor, ProQinase kinase profiling; conditions = 25 µM; scale = relative to: control; measurement = remaining activity; value = 108% and 117%
SMILES = CN1CC[C@@H](COc2cnc(C#N)cc2-c2ccn3nc(NC(=O)C4CC4)cc3c2)C1; target = BRAF; assay = enzyme activity, inhibitor; conditions = 1 µM; measurement = inhibition; value = 4%
